# Assay results collected from several papers.
# Parts stem from different laboratories: compare values within a part only.

# Sample 1 — method: universal PBM; molecule type: double-stranded DNA, one strand shown; matrix: in vitro; tested at: 600 nM; direction: higher = stronger binding
# Target: Sal-like protein 4, full length isoform A (SALL4, Homo sapiens, UniProt Q9UJQ4, residues 1-1053)
# UniProt Q9UJQ4, sequence (whole entry, looked up): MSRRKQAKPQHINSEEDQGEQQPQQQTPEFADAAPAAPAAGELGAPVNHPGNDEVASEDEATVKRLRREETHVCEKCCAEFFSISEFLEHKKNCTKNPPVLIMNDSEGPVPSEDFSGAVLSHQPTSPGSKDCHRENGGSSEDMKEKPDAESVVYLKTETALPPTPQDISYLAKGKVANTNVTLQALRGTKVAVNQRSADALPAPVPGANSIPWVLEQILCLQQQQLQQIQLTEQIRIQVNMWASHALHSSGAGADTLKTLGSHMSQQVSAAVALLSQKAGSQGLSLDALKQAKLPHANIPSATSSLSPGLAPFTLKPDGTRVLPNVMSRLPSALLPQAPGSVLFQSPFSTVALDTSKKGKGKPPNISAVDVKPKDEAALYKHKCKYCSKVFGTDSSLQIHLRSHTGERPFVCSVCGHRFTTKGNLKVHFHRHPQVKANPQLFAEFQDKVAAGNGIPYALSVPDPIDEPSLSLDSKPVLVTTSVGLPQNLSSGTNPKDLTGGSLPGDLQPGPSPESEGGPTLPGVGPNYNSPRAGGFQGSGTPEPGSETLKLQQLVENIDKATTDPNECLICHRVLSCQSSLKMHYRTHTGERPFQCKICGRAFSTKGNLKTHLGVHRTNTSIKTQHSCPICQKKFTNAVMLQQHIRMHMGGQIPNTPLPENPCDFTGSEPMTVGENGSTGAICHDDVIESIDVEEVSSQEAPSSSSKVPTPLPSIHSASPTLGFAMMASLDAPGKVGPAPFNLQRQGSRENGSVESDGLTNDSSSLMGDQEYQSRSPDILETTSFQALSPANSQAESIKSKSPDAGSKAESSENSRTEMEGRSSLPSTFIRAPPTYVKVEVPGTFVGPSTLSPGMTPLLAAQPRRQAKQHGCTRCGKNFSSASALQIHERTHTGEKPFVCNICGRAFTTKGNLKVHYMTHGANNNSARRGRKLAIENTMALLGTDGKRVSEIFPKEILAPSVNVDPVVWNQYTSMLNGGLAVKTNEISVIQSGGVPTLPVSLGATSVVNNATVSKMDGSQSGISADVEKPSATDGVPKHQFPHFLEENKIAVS
# Setting: 8-mer, flanks averaged, mean of replicates
Oligonucleotide,E-score
CTACGGGA,-0.228
CCTAAGTA,0.123
AATGTGAC,0.0216
AACAATGG,0.0417
GAAGTAAA,0.207
ACTCGTCC,-0.179
CCATACCG,-0.125
AGCCATCG,-0.131
GCTACTGA,-0.077
CTGCTATA,0.0959
CTGGGTTA,-0.114
GGTACACC,-0.274
CCACTCCA,-0.128
TGCGCGCA,-0.0273
AGCGTCAT,-0.0181
CCGGGATA,-0.148

# Sample 2 — method: RNA Bind-n-Seq; molecule type: RNA; matrix: in vitro; tested at: 100 nM; reference: input RNA pool; direction: higher = stronger binding
# Target: RING finger protein unkempt homolog, zinc fingers 1-6, SBP tag (UNK, Homo sapiens, UniProt Q9C0B0, residues 30-357)
# UniProt Q9C0B0, sequence (30-357, looked up): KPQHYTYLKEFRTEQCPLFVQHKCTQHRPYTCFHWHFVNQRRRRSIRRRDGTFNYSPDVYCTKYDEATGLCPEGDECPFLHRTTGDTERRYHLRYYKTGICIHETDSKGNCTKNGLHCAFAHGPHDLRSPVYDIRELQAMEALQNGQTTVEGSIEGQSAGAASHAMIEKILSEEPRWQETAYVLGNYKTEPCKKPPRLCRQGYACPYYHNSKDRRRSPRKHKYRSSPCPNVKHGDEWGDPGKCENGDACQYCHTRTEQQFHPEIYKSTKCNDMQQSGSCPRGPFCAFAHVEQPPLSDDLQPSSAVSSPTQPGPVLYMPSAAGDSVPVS
# Setting: RNA with constant flanks, vertebrate orthologous sites, ends assumed
Oligonucleotide,bound/input enrichment [ratio]
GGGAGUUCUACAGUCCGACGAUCGUGUUGGUGCAGAGUGCUCUGUGCCAGUUGCUCAUGAUCCCUUUUUCAUACCAACAGCCCUAGUUACAGGAAUUUAAUAUUUUUAAAAAUUUACAUUGCUGUAUAUUCAAAGAUUUGUUUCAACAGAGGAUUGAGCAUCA,0.33
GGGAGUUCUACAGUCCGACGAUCUUUGAUUUUAUGUGUUUAAAAAGCUUGAAAAACAUUGCUUUAAAAAAGGAAAAAAAAAAGGCAAAUAGAGCAACCCGUUGUUAAAGUAGAAGAGUUUUUAGCUAGAGAACGUGCUCGCUUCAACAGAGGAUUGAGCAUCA,0.273
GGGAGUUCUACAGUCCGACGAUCUUUGAGUUAGUUUUUCACAUUUUCUGUAAAUAACAGAUAAUCUUUUUAAAGUUUAUUUUUAAGUGCUGUUUUAACAAUGUGGAUAGACUAUAAAUGUACUUGCUGAAUUCAUUCAUUUUUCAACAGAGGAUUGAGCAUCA,0.207
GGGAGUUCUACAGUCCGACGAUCUCAGUCAUGGAGAAAAAUAUAUUAAAAUAAUUCAUGGCACUGAUGUUAAUUCUAGUCUAUUGGUUUUAUAAAAGUUAGGGUUCUUAUUUAGGAACAACAGGAAGUGACUGUUAAAGAGAACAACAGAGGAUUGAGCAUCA,0.983
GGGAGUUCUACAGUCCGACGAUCCUUAAAGUCAUUUUCCCACAUUUCCUGUAAAUAAUGGAUAAUCAUUUUUAUUUUAUUUUUAAGUACUGUUUUAACAAUGUGGAUAGACCAUAAAUGUACUUGCUGAAUUCAUUCAUGUUUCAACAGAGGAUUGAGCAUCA,0.269
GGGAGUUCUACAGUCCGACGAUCCUGAAGCUUUGUGUUUGGCUGCACUUGCAUAAGCUGCUACAAAUAGAAUAAAGAAUUUCAUAGCCUGUAUCUAUCAUUUAGAUGCAUGGAAAAAAAUGGGCUUUGCACACAAUGGGUUUGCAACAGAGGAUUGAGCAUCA,1.75
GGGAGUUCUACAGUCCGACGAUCUCAUAAUCACUCUAAUUGUAAUCUGAAUAAAGUGUAACAUGUGUAGCCUUUUGUAUAAAAUAGACAAAUAGAAAUGGUCCAAUUAGUUUCCUUUUUAAUAUGCUUAAAAUAAGCAGGUGGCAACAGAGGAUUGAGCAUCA,2.43
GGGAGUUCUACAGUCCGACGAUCCCGCUAAACCCCAUUUCUUCUGUUUCAUAGUGCAGAAGUAUUCUUUCUCAGCUAUAUUAUUAGUGGACUUGUUUUAAUUUUAGGGAAACUUCCAGUACAGAUACUGUGAGCUUACAAGGACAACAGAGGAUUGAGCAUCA,0.936

# Sample 3 — method: aptamer microarray, sandwich; molecule type: DNA with 2'F-ANA; matrix: in vitro; tested at: 200 nM; added: Cy3 exosite-II aptamer, 400 nM; direction: higher = stronger binding; oligonucleotide: GGTTGGTGTGGTTGG
# Target: Prothrombin, mature alpha-thrombin (F2, Homo sapiens, UniProt P00734)
# Setting: whole 15-mer aptamer, many near background
Modification,mean fluorescence intensity [a.u.]
2'F-ANA at 1 3 6 12 13 15,391
2'F-ANA at 3 4 5 6 7 8 12 14 15,71.8
2'F-ANA at 1 4 5 6 7 10 11 12 15,53.9
2'F-ANA at 1 2 3 7 11 12 13 14,91
2'F-ANA at 2 3 4 8 10 12 13 14,172
2'F-ANA at 4 5 7 9 10 15,46.2
2'F-ANA at 3 5 8 11 12 13 14 15,62.8
2'F-ANA at 2 6 7 8 9 11,352
2'F-ANA at 2 3 5 9 15,103
2'F-ANA at 1 3 6 7 8 9 10 14 15,59.4
2'F-ANA at 1 4 7 8 10 14,53.5
2'F-ANA at 1 2 4 7 8 9 10 11 12,57.6
2'F-ANA at 3 4 5 7 8 9 13 14 15,57.1
2'F-ANA at 2 3 4 5 6 10 13 15,131
2'F-ANA at 1 3 5 6 11 13 14 15,46
2'F-ANA at 1 5 8 11 13,99.2
2'F-ANA at 3 4 5 6 8 9 11 13 14 15,49.1
2'F-ANA at 1 4 6 9 11 12 14,54.1

# Sample 4 — method: protein-binding microarray; molecule type: double-stranded DNA, one strand shown; matrix: in vitro; tested at: 250 nM; setting: 60-bp whole probe; added: salmon DNA 0.4 mg/ml; reference: random background probes; direction: higher = stronger binding; constant ends, left off below: GCCTAGCAC … GTCTTGATTCGCTTGACGCTGCTG
# Target: Interferon regulatory factor 7, full length, phosphomimetic (IRF7, Homo sapiens, UniProt Q92985, residues 1-503, S101K/S471D/S472D/S475D/S476D/S477D/S483D/S484D/S487D)
# Construct (chain): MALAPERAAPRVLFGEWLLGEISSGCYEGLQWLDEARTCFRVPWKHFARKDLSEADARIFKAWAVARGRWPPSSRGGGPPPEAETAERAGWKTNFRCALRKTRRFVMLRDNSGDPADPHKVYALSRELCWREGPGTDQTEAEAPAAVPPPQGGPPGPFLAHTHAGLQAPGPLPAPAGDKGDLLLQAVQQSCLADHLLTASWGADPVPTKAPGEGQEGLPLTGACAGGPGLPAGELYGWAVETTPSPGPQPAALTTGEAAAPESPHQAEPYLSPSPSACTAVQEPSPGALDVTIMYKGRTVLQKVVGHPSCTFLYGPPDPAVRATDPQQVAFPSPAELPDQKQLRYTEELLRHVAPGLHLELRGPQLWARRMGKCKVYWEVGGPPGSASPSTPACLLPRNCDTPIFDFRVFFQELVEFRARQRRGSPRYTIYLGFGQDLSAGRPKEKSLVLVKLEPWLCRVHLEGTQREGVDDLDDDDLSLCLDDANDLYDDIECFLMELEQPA
Oligonucleotide,log fluorescence [z-score]
GACGGTTTCGTTATCCTGACGTGCTAG,12.1
TTAGGTTTCGGGTTCCGGTTAGTGCTA,12
TCACTTTTTAAGATCTGACTGTGCTAG,0.87
TTAGGTATCTTTCTCCTTTAGTGCTAG,0.716
TTAGGTCTCGGTTTCGCTTAGTGCTAG,9.44
AAAAAAATCATTTTCTCTGTGTGCTAG,0.168
CTAGTTTTTACTTTCTGAATGTGCTAG,2.35
GGCCTCTCTGTTTTCCTGTTGTGCTAG,0.984
GACGGTATCTACACTGGGGACGTGCTA,-0.118
GATGGGCTACCTCTCTTAGAGTGCTAG,-0.955
CAGCGCGCAGCTGCCAGAACGTGCTAG,-1.56
TTAGGTCTCCTACTGCTTCAGTGCTAG,-0.338
TTAGGTTTCGATCTCGGTTAGTGCTAG,9.46
TTCCTTTCTCTTCCGTTAGCGTGCTAG,2.5
GACGAACTGAGTTTCGAAACGTGCTAG,5.32
TTGGGTCTCCTTTTCCTTTAGTGCTAG,1.57
TTAGGTTTCCTCATCCTTTAGTGCTAG,1.42
TCAGGCCTCTTCATTCATACTGTGCTA,-0.469
TCAACTTTCTTTACTTCACTGTGCTAG,0.872

# A few entries again (sample 2):
Oligonucleotide,bound/input enrichment [ratio]
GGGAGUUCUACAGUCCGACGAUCUCAUAAUCACUCUAAUUGUAAUCUGAAUAAAGUGUAACAUGUGUAGCCUUUUGUAUAAAAUAGACAAAUAGAAAUGGUCCAAUUAGUUUCCUUUUUAAUAUGCUUAAAAUAAGCAGGUGGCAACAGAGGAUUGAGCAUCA,2.43
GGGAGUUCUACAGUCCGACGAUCCUGAAGCUUUGUGUUUGGCUGCACUUGCAUAAGCUGCUACAAAUAGAAUAAAGAAUUUCAUAGCCUGUAUCUAUCAUUUAGAUGCAUGGAAAAAAAUGGGCUUUGCACACAAUGGGUUUGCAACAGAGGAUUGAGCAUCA,1.75
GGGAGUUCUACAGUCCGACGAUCUCAGUCAUGGAGAAAAAUAUAUUAAAAUAAUUCAUGGCACUGAUGUUAAUUCUAGUCUAUUGGUUUUAUAAAAGUUAGGGUUCUUAUUUAGGAACAACAGGAAGUGACUGUUAAAGAGAACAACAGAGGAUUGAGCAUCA,0.983
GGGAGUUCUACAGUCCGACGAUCCUUAAAGUCAUUUUCCCACAUUUCCUGUAAAUAAUGGAUAAUCAUUUUUAUUUUAUUUUUAAGUACUGUUUUAACAAUGUGGAUAGACCAUAAAUGUACUUGCUGAAUUCAUUCAUGUUUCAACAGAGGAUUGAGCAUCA,0.269
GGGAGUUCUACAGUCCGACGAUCCCGCUAAACCCCAUUUCUUCUGUUUCAUAGUGCAGAAGUAUUCUUUCUCAGCUAUAUUAUUAGUGGACUUGUUUUAAUUUUAGGGAAACUUCCAGUACAGAUACUGUGAGCUUACAAGGACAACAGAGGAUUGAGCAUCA,0.936
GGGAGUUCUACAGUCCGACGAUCGUGUUGGUGCAGAGUGCUCUGUGCCAGUUGCUCAUGAUCCCUUUUUCAUACCAACAGCCCUAGUUACAGGAAUUUAAUAUUUUUAAAAAUUUACAUUGCUGUAUAUUCAAAGAUUUGUUUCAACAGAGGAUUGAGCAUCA,0.33
